Published values from different studies.
Protocols differ between the studies behind these lines. “And” joins repeats or separate records; there may be more than shown.
Target: Dual specificity protein kinase CLK3 (CLK3, Homo sapiens, UniProt P49761)
Residues used in one study (P49761 1-490): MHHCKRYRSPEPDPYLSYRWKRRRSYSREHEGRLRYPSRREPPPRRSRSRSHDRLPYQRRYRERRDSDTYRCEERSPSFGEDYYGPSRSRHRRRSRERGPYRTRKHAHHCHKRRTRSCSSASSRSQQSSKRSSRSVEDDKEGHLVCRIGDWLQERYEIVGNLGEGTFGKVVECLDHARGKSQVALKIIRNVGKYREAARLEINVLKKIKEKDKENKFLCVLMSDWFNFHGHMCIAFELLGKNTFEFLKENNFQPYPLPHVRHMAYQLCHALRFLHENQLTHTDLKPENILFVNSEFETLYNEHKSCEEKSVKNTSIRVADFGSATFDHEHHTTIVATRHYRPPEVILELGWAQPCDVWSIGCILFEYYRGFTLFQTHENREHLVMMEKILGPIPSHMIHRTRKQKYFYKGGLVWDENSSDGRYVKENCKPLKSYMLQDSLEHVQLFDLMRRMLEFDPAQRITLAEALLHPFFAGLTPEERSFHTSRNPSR

Compound | assay | test system | conditions | scale | quantity | result
Cc1cccc(O[C@H]2CCC[C@@H](C(C)CNCc3ccncc3)C2)c1 (relative stereo) | enzyme activity, inhibitor | – | 1 µM | – | inhibition | 2%
O=C(Cc1ccc(OCc2ccccc2)cc1)NC1(C(=O)O)CCN(C(=O)c2ccc(-c3cccc(Cl)c3)cc2)CC1 | enzyme activity, inhibitor | – | 10 µM | – | activity vs control | 113%
C=CC(=O)Nc1cccc(-c2cnc3[nH]cc(C(=O)NC(C)(C)C)c3n2)c1 | kinase activity | – | 0.1 µM | – | inhibition | 16% and 15%
COc1ccc(NC(=O)Nc2ccc3c(c2)C(=O)N(C(C)CO)CC(C)C(CN(C)Cc2ccc4c(c2)OCO4)O3)cc1 (centres unmarked) | kinase activity, KinaseProfiler | – | 0.03 µM, species human | reference: control | remaining activity | 93%
CN1CCN(Cc2ccc(-c3ccc(CO[C@H]4CCC[C@@H]4NC(=O)c4cc(-c5cnn(C)c5)cnc4N)cc3)cc2)CC1 | enzyme activity, inhibitor | – | 0.1 µM | – | inhibition | 0%
CCn1cc(C(=O)O)c(=O)c2c(N)c(F)c(NC3CCCCC3)cc21 | kinase activity | – | 0.1 µM, added: ATP at Km | – | inhibition | -6.8%
CNC(=O)C[C@H](Cc1ccc(C#N)cc1)NC(=O)c1cc(-c2ccc(CN[C@H](C)c3ccc(C)cc3)o2)ccc1Cl | enzyme activity, inhibitor | – | 1 µM | – | activity vs control | 99%
NC(=O)C[C@H]1CCc2sc3ncnc(O[C@H]4CC[C@H](N5CCOCC5)CC4)c3c21 | enzyme activity, inhibitor | – | 10 µM | – | inhibition | -4%
C=CC(=O)N1CCCC(n2c(=O)c3ncccc3n(Cc3ccc(Oc4ccccc4)cc3)c2=O)C1 (centres unmarked) | cell-free assay, competition with immobilised ligand | – | 1 µM | – | remaining binding | 95%
C=CC(=O)N1CCc2ccc(-n3c(=O)ccc4cnc5ccc(-c6cnn(C)c6)cc5c43)cc21 | KINOMEscan | – | 1 µM | reference: DMSO control | remaining binding | 100%
CNC1C[S+]2CC[S+]3CC[S+](C1)[Ru-4]321([N]=C=S)[n]2c3ccc(OC)cc3c3c4c(c5cc(F)c[n+]1c5c32)C(=O)NC4=O (centres unmarked) | KinomeScan | – | 0.1 µM | reference: untreated | remaining binding | 100%
C=CC(=O)Nc1cc(-c2nn(C3CCN(CCNC(=O)[C@H](C)CCC45CC6CC(CC(C6)C4)C5)CC3)c3ncnc(N)c23)ccc1Oc1ccccc1 | inhibitor, KiNativ profiling | biochemical | 2 µM | – | inhibition | 17%
CC(C)=CC1OC(C)(C)C2C=C3C(=O)C(Cl)=CC(O)C3C3C(O)C4OC4C(=O)C132 (centres unmarked) | cell-free assay, competition with immobilised ligand | – | 10 µM | – | remaining binding | 100%
Nc1ncc(-c2cc(-c3cnn(CC(F)(F)F)c3)ncc2F)nc1C(=O)NC1CNCC(F)C1 (centres unmarked) | enzyme activity | – | 1 µM | reference: DMSO control | remaining activity | 108%

Some of these lines once more:
Compound | assay | test system | conditions | scale | quantity | result
CC(C)=CC1OC(C)(C)C2C=C3C(=O)C(Cl)=CC(O)C3C3C(O)C4OC4C(=O)C132 (centres unmarked) | cell-free assay, competition with immobilised ligand | – | 10 µM | – | remaining binding | 100%
COc1ccc(NC(=O)Nc2ccc3c(c2)C(=O)N(C(C)CO)CC(C)C(CN(C)Cc2ccc4c(c2)OCO4)O3)cc1 (centres unmarked) | kinase activity, KinaseProfiler | – | 0.03 µM, species human | reference: control | remaining activity | 93%
